Results collected from several papers.
Compare with care: the assays were run in different laboratories. Numbers after ± are the reported error.
SPT15/TOA1/TOA2/SUA7 1-240; 1-286; 1-122; 1-345: SPT15/TOA1/TOA2/SUA7 1-240; 1-286; 1-122; 1-345 (Saccharomyces cerevisiae)
Fibroin-modulator-binding protein-1: Fibroin-modulator-binding protein-1 99-193 (Bombyx mori, UniProt Q5FBS0)
Chain of UniProt Q13YL3 (whole entry, looked up): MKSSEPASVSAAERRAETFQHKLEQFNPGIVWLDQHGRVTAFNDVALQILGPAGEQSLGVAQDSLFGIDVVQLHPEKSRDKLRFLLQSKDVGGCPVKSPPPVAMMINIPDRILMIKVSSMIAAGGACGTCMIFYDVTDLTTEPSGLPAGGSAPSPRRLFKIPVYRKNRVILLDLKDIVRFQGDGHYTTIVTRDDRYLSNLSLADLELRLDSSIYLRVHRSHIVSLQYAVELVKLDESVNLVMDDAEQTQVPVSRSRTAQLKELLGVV

With `GAATTCCTAAAAAGTAATGTGGAGCTCCGTTCGTCTCAAGTCAATCGGTCC (dsDNA; 5'-amino-C6 primer)` the Kd was 3.38 ± 0.7 nM (SPT15/TOA1/TOA2/SUA7 1-240; 1-286; 1-122; 1-345; array; double-stranded DNA, one strand shown; TBP:TFIIA:TFIIB ternary complex).
With `ACAAACAAACAA (dsDNA)` the Kd was 2670 ± 254 nM (Fibroin-modulator-binding protein-1; ITC; double-stranded DNA, one strand shown).
`GGGAGAACUUCGACCAGAAGUCUCCUAGUCCAUUUUGGCGCACGCGAAUACGGGAGACACUAUGUGCGCAUACAUGGAUCCUC (ssRNA; 2'-fluoro pyrimidines)` gave a relative binding of 156 RU (integrin alphaV/beta3 31-992/27-718 (Homo sapiens); SPR; RNA; added: MnCl2 1 mM; higher = more binding).
With `CGGGTTTCATGTACGTTTTCCGCTAGTTGGCGCGCGTGAACCCGCCGTTCGGGAAATTGCGT (dsDNA; blunt)` the K1/2 was 250 ± 10 nM (rcoM1 full length assumed (Paraburkholderia xenovorans, UniProt Q13YL3); fluorescence anisotropy; double-stranded DNA, one strand shown; Fe(II)-CO, Hill coefficient).
`GGGAGAACUUCGACCAGAAGUGCCAAGCCAGGCAGCGUGCAUAAUCCGAGUAGACAUUUUUAUGUGCGCAUACAUGGAUCCUC (ssRNA; 2'-fluoro pyrimidines)` gave a relative binding of 65.1 RU (integrin alphaV/beta3 31-992/27-718 (Homo sapiens); SPR; RNA; added: MnCl2 1 mM; higher = more binding).
`NRVDSKETEC` has a binding intensity of 0.4 (human SCRIB PDZ3-4 tandem (MBP fusion); automated holdup; peptide, purified PDZ protein; concentration not given, unit not given; reference: biotin control resin, higher = stronger binding).
`ACGCACGCACGC (dsDNA)` has a Kd of 6830 nM (Fibroin-modulator-binding protein-1; ITC; double-stranded DNA, one strand shown).
The Kd of `TCCTGAAGGGGCGCCCTAGCTTGGTCCTATCGTCGTCAAGTCAATCGGTCC (dsDNA; 5'-amino-C6 primer)` is reported as 1.71 ± 0.31 nM (SPT15/TOA1/TOA2/SUA7 1-240; 1-286; 1-122; 1-345; array; double-stranded DNA, one strand shown; TBP:TFIIA:TFIIB ternary complex).
The Kd of `GTGAGTGAGTGA (dsDNA)` is reported as 9880 nM (Fibroin-modulator-binding protein-1; ITC; double-stranded DNA, one strand shown).
`GGGAGAACUUCGACCAGAAGAGCGACUAAACGCAGAGAAAUCGUCUCCCUGAGGUUCCGAUAUGUGCGCAUACAUGGAUCCUC (ssRNA; 2'-fluoro pyrimidines)` has a relative binding of 5 RU (integrin alphaV/beta3 31-992/27-718 (Homo sapiens); SPR; RNA; added: MnCl2 1 mM; higher = more binding).
`CTCAGGAATTCCGATAAAGTAATGTGGAGCTCAGTTCAAGTCAATCGGTCC (dsDNA; 5'-amino-C6 primer)` gave a Kd of 8.88 ± 6.38 nM (SPT15/TOA1/TOA2/SUA7 1-240; 1-286; 1-122; 1-345; array; double-stranded DNA, one strand shown; TBP:TFIIA:TFIIB ternary complex).
The Kd of `GTACGTACGTAC (dsDNA)` is reported as 3870 ± 328 nM (Fibroin-modulator-binding protein-1; ITC; double-stranded DNA, one strand shown).
With `GGGAGAACUUCGACCAGAAGUAGAUGUCUUAACGCACAUUACGCAAACACACCUCCUGCCUAUGUGCGCAUACAUGGAUCCUC (ssRNA; 2'-fluoro pyrimidines)` the relative binding was 88.5 RU (integrin alphaV/beta3 31-992/27-718 (Homo sapiens); SPR; RNA; added: MnCl2 1 mM; higher = more binding).
The binding intensity of `NPDALPETLV` is reported as 0.716 (human MAGI1-3/6 PDZ construct (MBP fusion); automated holdup; peptide, crude extract; concentration not given, uncorrected, unit not given; reference: biotin control resin, higher = stronger binding).
For `AGATAGATAGAT (dsDNA)`, the Kd was 864 ± 88.6 nM (Fibroin-modulator-binding protein-1; ITC; double-stranded DNA, one strand shown).
`GGGAGAACUUCGACCAGAAGCUGGAUUACGCGAAAAAACUCCUCGCCUAUCGCAGCAAUGUAUGUGCGCAUACAUGGAUCCUC (ssRNA; 2'-fluoro pyrimidines)` has a relative binding of 40.6 RU (integrin alphaV/beta3 31-992/27-718 (Homo sapiens); SPR; RNA; added: MnCl2 1 mM; higher = more binding).
`DNA 1 CACTGGCCGTCTTACGGTCGCTCTGCTCGACG / DNA 2 CGACCGTAAGACGGCCAGTG (dsDNA; 20 bp, 3' 12 nt overhang)` gave a Kd of 43.6 ± 6.4 nM (RECQL 63-592 F322A (Bos taurus, UniProt A0JN36); fluorescence anisotropy; double-stranded DNA; added: Mg2+ 3 mM).
`DNA 1 TGGGTGGGTAGGGTGGGTAGGGGAGGAT / DNA 2 ATCCTCCCCTA (DNA; intramolecular parallel G4, 5' overhang, 11-bp duplex)` has a Kd of 4 ± 1 nM (REV1 330-833 R434Q (Homo sapiens, UniProt Q9UBZ9); FP; folded DNA; KCl 100 mM).

For quick reference, copied from above:
The Kd of `GTACGTACGTAC (dsDNA)` is reported as 3870 ± 328 nM (Fibroin-modulator-binding protein-1; ITC; double-stranded DNA, one strand shown).
`GGGAGAACUUCGACCAGAAGCUGGAUUACGCGAAAAAACUCCUCGCCUAUCGCAGCAAUGUAUGUGCGCAUACAUGGAUCCUC (ssRNA; 2'-fluoro pyrimidines)` has a relative binding of 40.6 RU (integrin alphaV/beta3 31-992/27-718 (Homo sapiens); SPR; RNA; added: MnCl2 1 mM; higher = more binding).
`DNA 1 CACTGGCCGTCTTACGGTCGCTCTGCTCGACG / DNA 2 CGACCGTAAGACGGCCAGTG (dsDNA; 20 bp, 3' 12 nt overhang)` gave a Kd of 43.6 ± 6.4 nM (RECQL 63-592 F322A (Bos taurus, UniProt A0JN36); fluorescence anisotropy; double-stranded DNA; added: Mg2+ 3 mM).
